Measurements collected from several papers.
Each numbered part is a random draw from the data of one study; scales do not carry over between parts.
Sequence of UniProt P28566 (whole entry, looked up): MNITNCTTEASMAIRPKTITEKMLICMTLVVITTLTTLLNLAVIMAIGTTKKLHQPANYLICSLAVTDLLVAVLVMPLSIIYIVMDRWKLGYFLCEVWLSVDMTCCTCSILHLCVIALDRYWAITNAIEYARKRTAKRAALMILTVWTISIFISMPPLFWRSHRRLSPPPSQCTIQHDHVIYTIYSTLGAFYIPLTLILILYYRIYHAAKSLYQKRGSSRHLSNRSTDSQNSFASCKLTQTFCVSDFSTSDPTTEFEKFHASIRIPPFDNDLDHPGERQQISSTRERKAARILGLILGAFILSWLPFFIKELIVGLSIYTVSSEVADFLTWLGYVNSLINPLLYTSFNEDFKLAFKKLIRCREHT

Sample 1
SMILES: C=CCc1ccc(O)c(-c2cc(CC=C)ccc2O)c1
Read-out: chloride current
Method: whole-cell voltage clamp
ANO1 del476-501/M544A: Anoctamin-1 (ANO1, Homo sapiens, UniProt Q5XXA6, del476-501/M544A)
Sequence of UniProt Q5XXA6 (whole entry, unmodified, looked up): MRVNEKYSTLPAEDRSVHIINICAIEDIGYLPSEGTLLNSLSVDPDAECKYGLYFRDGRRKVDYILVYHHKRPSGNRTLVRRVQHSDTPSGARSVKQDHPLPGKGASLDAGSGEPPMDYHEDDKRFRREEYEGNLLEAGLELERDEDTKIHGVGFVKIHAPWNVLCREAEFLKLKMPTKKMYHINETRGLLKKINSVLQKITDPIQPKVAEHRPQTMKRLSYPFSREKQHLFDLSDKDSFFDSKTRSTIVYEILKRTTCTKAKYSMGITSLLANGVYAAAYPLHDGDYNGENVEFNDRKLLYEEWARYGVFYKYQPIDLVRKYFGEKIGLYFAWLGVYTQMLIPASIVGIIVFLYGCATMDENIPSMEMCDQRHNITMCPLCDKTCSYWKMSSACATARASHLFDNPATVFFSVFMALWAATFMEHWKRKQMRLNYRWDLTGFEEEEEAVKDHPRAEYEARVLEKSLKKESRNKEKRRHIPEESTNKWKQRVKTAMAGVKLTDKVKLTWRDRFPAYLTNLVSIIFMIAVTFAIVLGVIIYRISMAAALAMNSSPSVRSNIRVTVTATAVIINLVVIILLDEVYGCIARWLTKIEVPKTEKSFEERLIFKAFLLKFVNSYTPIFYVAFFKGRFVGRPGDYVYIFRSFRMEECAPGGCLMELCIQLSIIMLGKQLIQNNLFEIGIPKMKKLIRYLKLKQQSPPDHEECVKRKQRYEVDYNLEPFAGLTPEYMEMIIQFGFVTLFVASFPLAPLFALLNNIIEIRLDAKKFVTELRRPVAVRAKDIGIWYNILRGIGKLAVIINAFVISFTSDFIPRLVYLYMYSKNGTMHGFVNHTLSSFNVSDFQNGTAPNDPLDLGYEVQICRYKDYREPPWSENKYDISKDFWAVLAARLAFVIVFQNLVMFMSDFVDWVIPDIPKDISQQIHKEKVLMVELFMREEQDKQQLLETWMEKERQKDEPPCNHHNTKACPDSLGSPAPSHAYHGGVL
ANO1 del476-501/L548A: Anoctamin-1 (ANO1, Homo sapiens, UniProt Q5XXA6, del476-501/L548A)
ANO1 del476-501/F646A: Anoctamin-1 (ANO1, Homo sapiens, UniProt Q5XXA6, del476-501/F646A)
For ANO1 del476-501/M544A; membrane voltage -40 mV: IC50 read 92 µM.
The IC50 was 30.6 µM (Anoctamin-1 (ANO1, Homo sapiens, UniProt Q5XXA6, del476-501); inhibitor; wild type, together with: 300 nM Ca2+).
ANO1 del476-501/L548A; membrane voltage -80 mV — IC50: 47.4 µM.
It gave 19 µM for IC50 (ANO1 del476-501/F646A; membrane voltage 20 mV).
It gave 32.1 µM for IC50 (ANO1 del476-501/L548A; membrane voltage -20 mV).
The IC50 was 78.2 µM (ANO1 del476-501/M544A; membrane voltage 20 mV).
ANO1 del476-501/F646A; membrane voltage -80 mV — IC50: 24 µM.

Sample 2
Method: logD(dd/w) and ALogP
Notes: MRN method
For `CCC[C@H]1NC(=O)[C@H](CC(C)C)NC(=O)[C@H](Cc2ccc(O)cc2)NC(=O)[C@H]2CCCN2C(=O)[C@H](CC2CCCCC2)NC(=O)[C@H](CC2CCCCC2)NC1=O`, “lipophilic permeability efficiency” read -0.0378.
Under “lipophilic permeability efficiency”, `CC[C@@H]1C(=O)N(C)[C@@H](CC(C)C)C(=O)N[C@@H](CC(C)C)C(=O)N2CCC[C@@H]2C(=O)N(C)[C@@H](CC2CCCCC2)C(=O)N[C@@H](CC(C)C)C(=O)N1C` is recorded as 3.52.
`CC(C)C[C@@H]1NC(=O)[C@H](Cc2ccc(O)cc2)NC(=O)[C@H]2CCCN2C(=O)[C@H](CC2CCCCC2)NC(=O)[C@H](CC2CCCCC2)NC(=O)[C@@H](C)NC1=O`: “lipophilic permeability efficiency” 0.22.
`CC[C@@H]1C(=O)N(C)[C@@H](C)C(=O)N[C@@H](CC(C)C)C(=O)N2CCC[C@@H]2C(=O)N(C)[C@@H](C)C(=O)N[C@@H](CC(C)C)C(=O)N1C` — result for “lipophilic permeability efficiency”: 3.57.
For `CC[C@H]1C(=O)N[C@@H](CC(C)C)C(=O)N2CCC[C@@H]2C(=O)N(C)[C@@H](Cc2ccc(O)cc2)C(=O)N[C@@H](CC(C)C)C(=O)N(C)[C@H](C)C(=O)N1C`, “lipophilic permeability efficiency” read 1.46.
Under “lipophilic permeability efficiency”, `CC(C)C[C@@H]1NC(=O)[C@H](Cc2ccc(O)cc2)N(C)C(=O)[C@H]2CCCN2C(=O)[C@H](CC(C)C)NC(=O)[C@H](CC(C)C)N(C)C(=O)[C@@H](Cc2ccccc2)N(C)C1=O` is recorded as 1.72.
Under “lipophilic permeability efficiency”, `CC(C)C[C@@H]1NC(=O)[C@H](Cc2ccccc2)NC(=O)[C@H]2CCCN2C(=O)[C@H](CC(C)C)NC(=O)[C@H](CC2CCCCC2)NC(=O)[C@@H](CC(C)C)NC1=O` is recorded as 1.84.
`CC(C)C[C@@H]1NC(=O)[C@H](Cc2ccccc2)NC(=O)[C@H]2CCCN2C(=O)[C@H](CC(C)C)NC(=O)[C@H](CC(C)C)NC(=O)[C@@H](CC(C)C)NC1=O` — result for “lipophilic permeability efficiency”: 1.99.
Under “lipophilic permeability efficiency”, `CC(C)C[C@@H]1NC(=O)[C@H](Cc2ccccc2)N(C)C(=O)[C@H]2CCCN2C(=O)[C@H](CC(C)C)NC(=O)[C@H](C)N(C)C(=O)[C@@H](CC(C)C)N(C)C1=O` is recorded as 3.72.

Sample 3
Cell line: HaCaT
Tested at: 100 µM
Time: 18 h
The viability of `CC(C)C[C@H](NC(=O)[C@H](Cc1ccccc1)NC(=O)c1cnccn1)B(O)O` is reported as 22%.
With `N#C/C(=C1/SC[C@@H](c2ccc(Cl)cc2Cl)S1)n1ccnc1` the viability was 42.8%.
`Cc1cn(-c2cc(NC(=O)c3ccc(C)c(Nc4nccc(-c5cnccn5)n4)c3)cc(C(F)(F)F)c2)cn1` has a viability of 60.8%.
With `O=C1[C@H](CC[C@H](O)c2ccc(F)cc2)[C@@H](c2ccc(O)cc2)N1c1ccc(F)cc1` the viability was 19.4%.
The viability of `CNC(=O)c1cc(Oc2ccc(NC(=O)Nc3ccc(Cl)c(C(F)(F)F)c3)c(F)c2)ccn1` is reported as 51.5%.
`CN(C)c1ccc(C(=C2C=CC(=[N+](C)C)C=C2)c2ccc(N(C)C)cc2)cc1` gave a viability of 23.7%.
`O=[N+]([O-])c1cncn1CCN1CCOCC1` gave a viability of 88.8%.
`Cc1cnc(C(=O)N[C@H]2CCCCC/C=C\[C@@H]3C[C@@]3(C(=O)NS(=O)(=O)C3CC3)NC(=O)[C@@H]3C[C@@H](Oc4nc5ccccc5c5ccccc45)CN3C2=O)cn1` has a viability of 24.7%.
`CC(=O)Nc1ccccc1` has a viability of 108%.

Other studies, line by line
With `CCOc1ccc(S(=O)(=O)Nc2ccc(Cl)cc2C#Cc2cnc(C(=O)O)cc2OC)c2ncccc12` the Ki was > 10 µM (5-hydroxytryptamine receptor 1E (HTR1E, Homo sapiens, UniProt P28566); binding, radioligand binding).
